Measured values from different studies.
Compare with care: the assays were run in different laboratories. Numbers after ± are the reported error.
MDM2 with p53: E3 ubiquitin-protein ligase Mdm2, with p53 (MDM2, Homo sapiens, UniProt Q00987)
UniProt Q00987, sequence (whole entry, looked up): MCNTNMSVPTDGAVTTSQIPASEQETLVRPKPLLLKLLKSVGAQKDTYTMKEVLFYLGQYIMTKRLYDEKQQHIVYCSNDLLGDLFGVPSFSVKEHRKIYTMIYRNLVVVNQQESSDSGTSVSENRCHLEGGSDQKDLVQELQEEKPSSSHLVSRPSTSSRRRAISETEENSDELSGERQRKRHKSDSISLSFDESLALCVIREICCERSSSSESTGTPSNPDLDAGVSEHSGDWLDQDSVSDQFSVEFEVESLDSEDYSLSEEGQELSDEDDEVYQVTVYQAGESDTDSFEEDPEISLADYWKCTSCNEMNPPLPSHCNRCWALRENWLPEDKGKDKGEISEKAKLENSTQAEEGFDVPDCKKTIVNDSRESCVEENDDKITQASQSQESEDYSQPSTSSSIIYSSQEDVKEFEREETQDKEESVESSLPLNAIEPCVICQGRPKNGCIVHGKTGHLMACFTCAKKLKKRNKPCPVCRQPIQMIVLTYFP
MDM2 N-terminal domain 17-125: E3 ubiquitin-protein ligase Mdm2, N-terminal domain 17-125 (MDM2, Homo sapiens, UniProt Q00987)
MDM2: E3 ubiquitin-protein ligase Mdm2 (MDM2, Homo sapiens, UniProt Q00987)

SMILES	target	assay	setting	measurement	result
O=C(c1ccc(F)cc1)N(Cc1cccc(Cl)c1)Cc1ccco1	MDM2 with p53	inhibitor	–	IC50	0.73 ± 0.104 µM
CC(C)(C)c1ccc2[c](c1)[Au-]1([Cl])[c]3cc(C(C)(C)C)ccc3-c3cncc-2[n+]31	MDM2 N-terminal domain 17-125	MDM2-p53 binding, inhibitor, fluorescence polarization	pH 7.4	IC50	48.8 ± 3.1 µM
CC(=O)N[C@H](C(=O)N[C@@H](CO)C(=O)N[C@@H](Cc1ccccc1)C(=O)N[C@]1(C)CCCCCCCCCCC[C@@](C)(C(N)=O)NC(=O)[C@H](CC(C)C)NC(=O)[C@H](CC(C)C)NC(=O)[C@H](C)NC(=O)[C@H](Cc2c[nH]c3ccccc23)NC(=O)[C@H](Cc2ccc(O)cc2)NC(=O)[C@H](CCC(=O)O)NC1=O)[C@@H](C)O	MDM2	cell-free assay, FP	pH 7.4	Kd	0.209 µM
CC(=O)N(CC(=O)N(C)CC(=O)N(CC(=O)N(C)CC(=O)N(CCC(C)(C)C)CC(=O)N1CCNCC1)Cc1c[nH]c2cc(Cl)ccc12)Cc1ccccc1	MDM2 N-terminal domain 17-125	isothermal titration calorimetry	25 °C	Kd	no binding
Cc1cccc(OCC(=O)N(Cc2ccco2)Cc2ccccc2F)c1C	MDM2 with p53	inhibitor	–	IC50	0.87 ± 0.16 µM
COc1cc(C(=O)NCCOCCOCCOCCNC(=O)c2ccc(F)nc2)ccc1NC(=O)C1NC(CC(C)(C)C)C(C#N)(c2ccc(Cl)cc2F)C1c1cccc(Cl)c1F (centres unmarked)	MDM2	ligand displacement, FP	–	IC50	0.119 µM
Nc1ncnc2c1ncn2[C@@H]1O[C@H](COP(=O)(O)OP(=O)(O)OP(=O)(O)O)[C@@H](O)[C@H]1O	E3 ubiquitin-protein ligase Mdm2, RING domain 400-491 (MDM2, Homo sapiens, UniProt Q00987)	isothermal titration calorimetry	100 nM protein	Kd	~4 µM
CC(C)C[C@H](NC(=O)[C@H](CC(=O)O)NC(=O)[C@H](CO)NC(=O)[C@H](Cc1ccccc1)NC(=O)[C@@H](NC(=O)[C@H](CCC(=O)O)NC(=O)CNC(=O)[C@@H](N)CO)[C@@H](C)O)C(=O)N[C@@H](Cc1c[nH]c2ccccc12)C(=O)N[C@@H](CCCCN)C(=O)N[C@@H](CC(C)C)C(=O)N[C@@H](CC(C)C)C(=O)N1CCC[C@H]1C(=O)N[C@@H](CCC(=O)O)C(=O)N[C@@H](CC(N)=O)C(=O)O	E3 ubiquitin-protein ligase Mdm2, p53-binding domain (MDM2, Homo sapiens, UniProt Q00987)	p53 binding, inhibitor, ELISA competition	with: HDM2 4 nM	IC50	4.1 µM
CC(C)[C@@H](CS(=O)(=O)C(C)C)N1C(=O)[C@@](C)(CC(=O)NCCCNC(=O)c2ccc(F)nc2)C[C@H](c2cccc(Cl)c2)[C@H]1c1ccc(Cl)cc1	MDM2	ligand displacement, FP	–	IC50	0.0379 µM
CC(=O)N[C@@H](CC(C)C)C(=O)N[C@H](C(=O)N[C@@H](Cc1ccccc1)C(=O)N[C@]1(C)CCCCCCCCCCC[C@@](C)(C(=O)N[C@@H](CO)C(=O)N[C@@H](C)C(=O)N[C@@H](C)C(N)=O)NC(=O)[C@H](CC2CCC2)NC(=O)[C@H](CCC(N)=O)NC(=O)[C@H](C)NC(=O)[C@H](Cc2c[nH]c3ccccc23)NC(=O)[C@H](Cc2ccc(O)cc2)NC(=O)[C@H](CCC(=O)O)NC1=O)[C@@H](C)O	MDM2	cell-free assay, FP	pH 7.4	Kd	0.113 µM
CC(=O)N[C@@H](CC(C)C)C(=O)N[C@H](C(=O)N[C@@H](Cc1ccccc1)C(=O)N[C@@H]1CSCc2ccc(cn2)-c2ccc(nc2)CSC[C@@H](C(=O)N[C@@H](CO)C(=O)NCCCNCCCCNCCCN)NC(=O)[C@H](CC(C)C)NC(=O)[C@H](CCC(N)=O)NC(=O)[C@H](C)NC(=O)[C@H](Cc2c[nH]c3ccccc23)NC(=O)[C@H](Cc2ccc(O)cc2)NC(=O)[C@H](Cc2c[nH]cn2)NC1=O)[C@@H](C)O	MDM2 with p53	binding, inhibitor, ELISA	–	IC50	0.018 ± 0.002 µM

For quick reference, copied from above:
SMILES	target	assay	setting	measurement	result
CC(=O)N[C@@H](CC(C)C)C(=O)N[C@H](C(=O)N[C@@H](Cc1ccccc1)C(=O)N[C@@H]1CSCc2ccc(cn2)-c2ccc(nc2)CSC[C@@H](C(=O)N[C@@H](CO)C(=O)NCCCNCCCCNCCCN)NC(=O)[C@H](CC(C)C)NC(=O)[C@H](CCC(N)=O)NC(=O)[C@H](C)NC(=O)[C@H](Cc2c[nH]c3ccccc23)NC(=O)[C@H](Cc2ccc(O)cc2)NC(=O)[C@H](Cc2c[nH]cn2)NC1=O)[C@@H](C)O	MDM2 with p53	binding, inhibitor, ELISA	–	IC50	0.018 ± 0.002 µM
